Assay results pooled from the literature.
Parts stem from different laboratories: compare values within a part only. Substitutions count along the parent as printed.

Series 1
Target: CCND3, cyclin fold, Cln2 fusion (human)
Technique: yeast growth competition, sequencing
Matrix: yeast
Setting: weak parent motif
Reference: not given
Reading: higher = stronger binding
Starting sequence: MASTL docking peptide (human); PMIAKNLMCELDE; partner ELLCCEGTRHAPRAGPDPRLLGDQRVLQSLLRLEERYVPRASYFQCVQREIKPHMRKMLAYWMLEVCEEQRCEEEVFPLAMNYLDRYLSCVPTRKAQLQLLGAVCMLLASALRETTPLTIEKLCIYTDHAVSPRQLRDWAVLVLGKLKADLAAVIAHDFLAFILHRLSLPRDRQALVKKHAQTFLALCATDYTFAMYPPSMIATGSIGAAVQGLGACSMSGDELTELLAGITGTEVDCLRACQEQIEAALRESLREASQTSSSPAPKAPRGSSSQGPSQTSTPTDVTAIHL
Substitution	normalised enrichment score
PMIPKNLMCELDE [A4P]	-0.03
PMIAKNLMWELDE [C9W]	-0.379
PMIAKNLMCEEDE [L11E]	0.0927
PMIAKNLMCVLDE [E10V]	0.0402
PMIAHNLMCELDE [K5H]	-0.14
PMIAKNLMAELDE [C9A]	0.18
PMCAKNLMCELDE [I3C]	0.09
PMIARNLMCELDE [K5R]	0.0395
PMIAKNLMCILDE [E10I]	0.147
PKIAKNLMCELDE [M2K]	1.05
PMIAKNLMCKLDE [E10K]	0.0345
PMVAKNLMCELDE [I3V]	-0.2
PMIAPNLMCELDE [K5P]	-0.569
PMDAKNLMCELDE [I3D]	-0.145
PMIAKNLYCELDE [M8Y]	-0.177
PMIAKWLMCELDE [N6W]	-0.15
PMIAKNCMCELDE [L7C]	-0.12
PMIAKNLMCELNE [D12N]	-0.143
PIIAKNLMCELDE [M2I]	-0.236
PMIAKNLRCELDE [M8R]	0.0384
PMISKNLMCELDE [A4S]	-0.222
PMIAKNLVCELDE [M8V]	0.192
PMIAKNLMCCLDE [E10C]	0.0198
PMIAKTLMCELDE [N6T]	0.32
PMIYKNLMCELDE [A4Y]	-0.195

Series 2
Target: Sal-like protein 4, full length isoform B (SALL4, Homo sapiens, UniProt Q9UJQ4-2, residues 1-616)
Technique: universal PBM
Molecule type: double-stranded DNA, one strand shown
Matrix: in vitro
Tested at: not given
Setting: 8-mer, flanks averaged, mean of replicates
Reading: higher = stronger binding
Strand	E-score
CGGCACCA	-0.278
ACTCTAAA	0.149
AACGTGAC	-0.129
CGTCCTTA	-0.0154
AATCACTG	0.042
GAGCCTCC	-0.193
ACGCTTGA	0.0869
CAGGGACC	-0.293
GCAAATAC	0.178
ACCGCGCT	-0.18
AGTGTTAG	0.0376
CGGCCTTC	-0.256
CACAGGCC	-0.126
GTATCCAA	0.0655
ATGATAAC	0.339
ATACGAAT	0.27

Series 3
Target: Histone acetyltransferase KAT6A, both winged helices, GST fusion (KAT6A, Homo sapiens, UniProt Q92794, residues 1-181)
Technique: protein binding microarray
Molecule type: double-stranded DNA, one strand shown
Matrix: in vitro
Tested at: not given
Setting: 8-mer, flanks averaged, mean of 2 arrays, mostly near background
Reference: not given
Reading: higher = stronger binding
Construct (chain): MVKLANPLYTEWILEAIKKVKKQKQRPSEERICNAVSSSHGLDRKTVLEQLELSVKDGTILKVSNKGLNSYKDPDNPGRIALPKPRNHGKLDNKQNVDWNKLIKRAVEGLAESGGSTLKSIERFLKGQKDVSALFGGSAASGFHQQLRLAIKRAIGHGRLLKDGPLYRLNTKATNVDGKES
Strand	E-score
AAACCGAT	0.0735
CGAGTTAA	-0.0569
CCCGCCGG	0.318
GACATTAC	-0.0363
GTCCGCCA	0.0979
AGACTCGC	0.0631
CAGCTATC	-0.108
GAAGCCCC	-0.0213
CAGCTTAC	0.0361
ACGTCTCT	-0.0517
AACATAGT	-0.0332
CGAAGTCC	0.132
ATCGATGG	-0.105
AAGCTCAG	-0.194
AGTGATGG	-0.157
ATAGCGAT	0.0265
CCCTAACA	-0.152
ACGAGGTA	-0.00549
AACATGGA	0.0159
GGCCCTTA	-0.0952
CAAAACCA	-0.0888
GGGTTTTA	0.0468
TTAATTAA	-0.174
CGTCATAC	0.0854

Series 4
Target: ABI1, truncated, D143A, DHFR fusion (Arabidopsis thaliana)
Technique: DHFR PCA, deep sequencing
Matrix: yeast
Setting: methotrexate growth selection, single substitutions
Together with: (+)-ABA 0.39 µM
Reference: wild-type fitted maximum
Reading: higher = stronger binding
Starting sequence: PYL1, truncated, DHFR fusion (Arabidopsis thaliana); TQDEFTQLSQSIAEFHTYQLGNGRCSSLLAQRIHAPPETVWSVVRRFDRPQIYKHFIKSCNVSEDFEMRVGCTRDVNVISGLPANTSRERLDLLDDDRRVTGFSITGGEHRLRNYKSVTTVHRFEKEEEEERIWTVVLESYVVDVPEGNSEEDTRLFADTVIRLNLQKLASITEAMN; partner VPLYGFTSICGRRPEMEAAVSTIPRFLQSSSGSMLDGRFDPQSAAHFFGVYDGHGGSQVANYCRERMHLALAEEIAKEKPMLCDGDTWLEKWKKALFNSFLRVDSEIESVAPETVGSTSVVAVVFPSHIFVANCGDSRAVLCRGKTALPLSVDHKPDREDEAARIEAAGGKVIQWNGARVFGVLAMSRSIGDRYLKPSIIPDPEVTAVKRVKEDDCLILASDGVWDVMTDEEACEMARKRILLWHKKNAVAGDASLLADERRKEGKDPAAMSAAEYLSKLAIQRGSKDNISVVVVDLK
Substitution	relative binding score [%]
D95V	13.5
L93I	79.5
D96E	44.5
S11Y	37.1
L91R	-6.07
A84T	23.5
S117I	-13.1
D75R	27.1
R45N	-24.6
G148C	9.29
S59G	9.9
V70F	-12
D95M	-2.72
S27K	-6.91
E139I	-25.6
G81I	-3.57
K126Q	63.7
S9Q	62
V137I	1.97

Series 5
Target: Ras GTPase-activating protein-binding protein 1, RRM domain (G3BP1, Homo sapiens, UniProt Q13283)
UniProt Q13283, sequence (whole entry, looked up): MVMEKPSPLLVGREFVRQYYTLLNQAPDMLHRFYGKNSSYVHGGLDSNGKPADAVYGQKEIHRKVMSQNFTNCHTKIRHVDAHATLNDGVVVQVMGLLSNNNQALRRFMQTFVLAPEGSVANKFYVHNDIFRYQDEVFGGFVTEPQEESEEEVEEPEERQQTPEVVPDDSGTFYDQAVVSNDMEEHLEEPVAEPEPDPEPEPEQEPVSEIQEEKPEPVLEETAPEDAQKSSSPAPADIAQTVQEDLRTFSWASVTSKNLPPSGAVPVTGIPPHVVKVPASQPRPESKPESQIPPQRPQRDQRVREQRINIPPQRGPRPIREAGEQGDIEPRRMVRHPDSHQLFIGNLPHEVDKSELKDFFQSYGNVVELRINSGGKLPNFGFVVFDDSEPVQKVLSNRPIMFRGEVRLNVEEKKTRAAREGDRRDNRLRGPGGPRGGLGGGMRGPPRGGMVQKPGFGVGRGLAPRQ
Technique: RNA Bind-n-Seq
Molecule type: RNA
Matrix: in vitro
Tested at: 1 µM
Setting: whole 134-nt RNA, ends assumed
Together with: 150 mM KCl
Reference: input library
Reading: higher = stronger binding
Constant ends, left off below: GGGAGUUCUACAGUCCGACGAUC … UGGAAUUCUCGGGUGUCAAGG
Strand	log2 enrichment
UGGCCCUGGUGGCAUGCGGGGAGGAAGAGGUGGCCUCAUGGAUCGUGGUGGUCCCGGUGGCAUGUUCAGAGGUGGCCGUGGUGGAGACAG	1.01
GUCCUGUGCUACACAUCGUAUGUACCGAAUCGGGGUUUUUGGGUUUUUGGGUUUUUGGGAAAGUAUUAUGUUACGCCGUUCGGAUCUGCA	0.172
ACCAUGCAGGUGGGCUUCUUUGGGAAGUGGGGCAAGGGGGGGAUAGGGAGGGGGGUAACACUUUGGGAACAGGUGGUCCCAGGUCGUUUC	-0.501
ACCAUGCAGGUGGGCAUCUUUGGGAAGUGGGGCAAGGGGGGGAUAGGGAGGGGGGUAACACUUUGGGAACAGGUGGUCCCAGGUAAAUUC	-0.569
ACCAUGCAGGUCGGCAUCUUUGGGAAGUGGGGCAAGGGGGGGAUAGGGAGGGGGGUAACACUUUGGGAACAGGUGGUCCCAGGUCGUUUC	-0.43
UGGGAUGUGGAUUUUGUUUAUUUUUUUAGCUCAUUUCCAGGGGUGGGAAUUUUUUUUUAAUAUGUGUCAUGAAUAAAGUUGUUUUUGAAA	2.21
AAGUCCUGUGCUACACAUCGUAUGUACCGAAUCAAACCCAAACCCCCAAAUUUAAAAAAGUAUUAUGUUACGCCGUUCGGAUCUGCACUU	-0.0531
UGGCCCUGGUGGCAUGCUGGGAGGAAGAGGUGGCCUCAUGGAUCGUGGUGGUCCCGGUGGAAUGUUCAGAGGUGGCCGUGGUGGAGACAG	1.11
UCCUGUGCUACACAUCGUAUGUACCGAAUCGGGGUUUUUGGGGAGGGGUUUUUUUGGGGAAAGUAUUAUGUUACGCCGUUCGGAUCUGCA	0.776
ACCAUGCAGGUGGGCAUCUUUGGGAAGUGGGGCAAGGGGGGGAUAGGGAGGGGGGUAACGCUUUGGGAACAGGUGGUCCCAGGUCGUUUC	0.928
AGUCCUGUGCUACACAUCGUAUGUACCGAAUCGGAAAAAGGGAAAAAGGGAAAAAGGAAAGUAUUAUGUUACGCCGUUCGGAUCUGCACU	-0.00147
GUCCUGUGCUACACAUCGUAUGUACCGAAUCGGGUUUUUGGGUUUGGGUUUUUUUGGGAAAGUAUUAUGUUACGCCGUUCGGAUCUGCAC	0.017
GCAGGAAGUAAAAACAAAUGGAAAUGCUUCGGAUAGUGGCAGGGGUGGGGGUUGCUAAGGAAAGGGUGGGAAAGGAGUGGGUAAAGAGUU	1.41
UGUGGGUCCUCCUGCACCUGGUGCUGGCCUUCCUGUCCCUGCGCUCUUUGACAGCCUCCUGACCUGUAGGACGAGGGAUUCCUUGUUCUU	-0.298

Series 6
Target: TAR DNA-binding protein 43, full length, His tag (TARDBP, Homo sapiens, UniProt Q13148, residues 1-414)
Technique: RNA Bind-n-Seq
Molecule type: RNA
Matrix: in vitro
Tested at: 20 nM
Setting: 6-mer, flanks averaged, single round
Together with: 150 mM KCl
Reference: input library
Reading: higher = stronger binding
Strand	6-mer enrichment (R)
AGACAU	0.639
AAUGAG	1.09
CCAUAU	0.598
CAGGCA	0.897
CGGCGA	1.45
AAGUAA	0.649
UAUAUC	0.552
UUGCGU	0.856
CGGCGG	3.43
UGGCAU	0.818
GCCGAU	0.832
CUAAUU	0.613
AAAAGC	0.629
GACAGC	0.944
CUAGCU	0.6
AUGUCA	0.636
AUACAA	0.651
GAGGAA	1.65
AUCAGG	0.981
UUUACA	0.591
UGCCGU	0.774
CGCGGA	1.53

Other studies, line by line
Molecule	target	test	system	setting	how to read	measurement	value
PhoQ, residues 284 288 289 292 302 303 GTAMQF	PhoP, residues 12 14 15 18 19 LHTVM (Escherichia coli, UniProt P23836)	Sort-seq, item: YFP reporter	E. coli	PhoQ-PhoP variant library, together with: 10 µM Mg2+	reference: high Mg2+ state, higher = stronger signaling	fold induction	98.5

Some of these lines once more (series 3):
Strand	E-score
AAACCGAT	0.0735
CGAGTTAA	-0.0569
CCCGCCGG	0.318
GACATTAC	-0.0363
GTCCGCCA	0.0979
AGACTCGC	0.0631
CAGCTATC	-0.108
GAAGCCCC	-0.0213
CAGCTTAC	0.0361
ACGTCTCT	-0.0517
AACATAGT	-0.0332
